# Measured values from different studies.
# Compare with care: the assays were run in different laboratories.
# Tumor necrosis factor receptor superfamily member 9/Nectin-4: Tumor necrosis factor receptor superfamily member 9/Nectin-4 (Homo sapiens, UniProt Q07011+Q96NY8)
# UniProt Q07011, sequence (whole entry, looked up): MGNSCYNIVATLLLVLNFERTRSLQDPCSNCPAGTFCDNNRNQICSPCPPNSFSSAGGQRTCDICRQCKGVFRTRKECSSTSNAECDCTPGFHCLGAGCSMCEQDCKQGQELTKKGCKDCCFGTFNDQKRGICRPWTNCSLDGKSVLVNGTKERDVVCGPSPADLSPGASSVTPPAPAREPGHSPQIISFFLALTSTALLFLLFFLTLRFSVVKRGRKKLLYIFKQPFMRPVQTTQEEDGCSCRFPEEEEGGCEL
# UniProt Q96NY8, sequence (whole entry, looked up): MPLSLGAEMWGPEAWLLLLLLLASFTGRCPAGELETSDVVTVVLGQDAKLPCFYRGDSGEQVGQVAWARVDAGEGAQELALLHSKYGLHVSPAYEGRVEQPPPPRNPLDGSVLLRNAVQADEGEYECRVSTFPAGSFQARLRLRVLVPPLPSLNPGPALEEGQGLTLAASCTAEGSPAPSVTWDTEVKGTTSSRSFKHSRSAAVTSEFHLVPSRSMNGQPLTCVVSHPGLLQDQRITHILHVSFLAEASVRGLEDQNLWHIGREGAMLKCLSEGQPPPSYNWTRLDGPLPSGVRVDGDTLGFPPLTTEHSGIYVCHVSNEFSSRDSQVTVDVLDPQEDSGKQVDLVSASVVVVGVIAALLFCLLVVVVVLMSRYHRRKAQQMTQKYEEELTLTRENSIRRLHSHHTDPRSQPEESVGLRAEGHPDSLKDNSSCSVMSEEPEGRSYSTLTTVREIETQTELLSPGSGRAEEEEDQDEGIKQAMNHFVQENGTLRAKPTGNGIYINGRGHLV
# UniProt Q86VL8, sequence (whole entry, looked up): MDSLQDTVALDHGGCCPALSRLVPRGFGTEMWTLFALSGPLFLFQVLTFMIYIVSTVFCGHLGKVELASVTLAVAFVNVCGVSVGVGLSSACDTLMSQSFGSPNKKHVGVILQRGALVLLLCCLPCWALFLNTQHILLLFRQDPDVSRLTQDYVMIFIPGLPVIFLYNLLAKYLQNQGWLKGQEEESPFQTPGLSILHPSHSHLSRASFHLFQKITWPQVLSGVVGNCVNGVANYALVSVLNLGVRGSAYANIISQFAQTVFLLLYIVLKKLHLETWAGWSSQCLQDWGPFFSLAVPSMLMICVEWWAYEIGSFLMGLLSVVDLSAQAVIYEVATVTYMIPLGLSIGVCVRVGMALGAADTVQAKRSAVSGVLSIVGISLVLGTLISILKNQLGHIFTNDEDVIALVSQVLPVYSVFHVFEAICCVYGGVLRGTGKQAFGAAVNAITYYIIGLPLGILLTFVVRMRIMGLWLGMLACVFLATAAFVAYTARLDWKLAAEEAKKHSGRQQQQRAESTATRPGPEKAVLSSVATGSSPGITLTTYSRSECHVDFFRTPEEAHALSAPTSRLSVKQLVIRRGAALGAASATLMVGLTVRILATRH
# UniProt Q9UNQ0, sequence (whole entry, looked up): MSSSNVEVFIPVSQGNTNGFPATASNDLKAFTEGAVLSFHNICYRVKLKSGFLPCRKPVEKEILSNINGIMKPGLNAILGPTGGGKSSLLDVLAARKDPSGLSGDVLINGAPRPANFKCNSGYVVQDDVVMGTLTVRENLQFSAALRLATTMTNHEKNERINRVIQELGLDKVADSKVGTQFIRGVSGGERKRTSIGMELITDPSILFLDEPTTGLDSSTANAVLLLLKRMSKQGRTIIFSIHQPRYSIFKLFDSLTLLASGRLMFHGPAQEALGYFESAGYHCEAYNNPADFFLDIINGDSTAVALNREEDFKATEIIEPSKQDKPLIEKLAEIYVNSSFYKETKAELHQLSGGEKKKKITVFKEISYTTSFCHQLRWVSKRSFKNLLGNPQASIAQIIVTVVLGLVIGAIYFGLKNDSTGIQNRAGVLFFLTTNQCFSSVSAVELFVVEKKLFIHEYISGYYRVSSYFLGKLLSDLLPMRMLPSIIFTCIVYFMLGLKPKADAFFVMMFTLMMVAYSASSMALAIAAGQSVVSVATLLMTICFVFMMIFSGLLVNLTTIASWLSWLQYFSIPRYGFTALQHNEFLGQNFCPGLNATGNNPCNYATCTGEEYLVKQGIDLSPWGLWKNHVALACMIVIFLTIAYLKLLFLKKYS
# UniProt Q13936, sequence (whole entry, looked up): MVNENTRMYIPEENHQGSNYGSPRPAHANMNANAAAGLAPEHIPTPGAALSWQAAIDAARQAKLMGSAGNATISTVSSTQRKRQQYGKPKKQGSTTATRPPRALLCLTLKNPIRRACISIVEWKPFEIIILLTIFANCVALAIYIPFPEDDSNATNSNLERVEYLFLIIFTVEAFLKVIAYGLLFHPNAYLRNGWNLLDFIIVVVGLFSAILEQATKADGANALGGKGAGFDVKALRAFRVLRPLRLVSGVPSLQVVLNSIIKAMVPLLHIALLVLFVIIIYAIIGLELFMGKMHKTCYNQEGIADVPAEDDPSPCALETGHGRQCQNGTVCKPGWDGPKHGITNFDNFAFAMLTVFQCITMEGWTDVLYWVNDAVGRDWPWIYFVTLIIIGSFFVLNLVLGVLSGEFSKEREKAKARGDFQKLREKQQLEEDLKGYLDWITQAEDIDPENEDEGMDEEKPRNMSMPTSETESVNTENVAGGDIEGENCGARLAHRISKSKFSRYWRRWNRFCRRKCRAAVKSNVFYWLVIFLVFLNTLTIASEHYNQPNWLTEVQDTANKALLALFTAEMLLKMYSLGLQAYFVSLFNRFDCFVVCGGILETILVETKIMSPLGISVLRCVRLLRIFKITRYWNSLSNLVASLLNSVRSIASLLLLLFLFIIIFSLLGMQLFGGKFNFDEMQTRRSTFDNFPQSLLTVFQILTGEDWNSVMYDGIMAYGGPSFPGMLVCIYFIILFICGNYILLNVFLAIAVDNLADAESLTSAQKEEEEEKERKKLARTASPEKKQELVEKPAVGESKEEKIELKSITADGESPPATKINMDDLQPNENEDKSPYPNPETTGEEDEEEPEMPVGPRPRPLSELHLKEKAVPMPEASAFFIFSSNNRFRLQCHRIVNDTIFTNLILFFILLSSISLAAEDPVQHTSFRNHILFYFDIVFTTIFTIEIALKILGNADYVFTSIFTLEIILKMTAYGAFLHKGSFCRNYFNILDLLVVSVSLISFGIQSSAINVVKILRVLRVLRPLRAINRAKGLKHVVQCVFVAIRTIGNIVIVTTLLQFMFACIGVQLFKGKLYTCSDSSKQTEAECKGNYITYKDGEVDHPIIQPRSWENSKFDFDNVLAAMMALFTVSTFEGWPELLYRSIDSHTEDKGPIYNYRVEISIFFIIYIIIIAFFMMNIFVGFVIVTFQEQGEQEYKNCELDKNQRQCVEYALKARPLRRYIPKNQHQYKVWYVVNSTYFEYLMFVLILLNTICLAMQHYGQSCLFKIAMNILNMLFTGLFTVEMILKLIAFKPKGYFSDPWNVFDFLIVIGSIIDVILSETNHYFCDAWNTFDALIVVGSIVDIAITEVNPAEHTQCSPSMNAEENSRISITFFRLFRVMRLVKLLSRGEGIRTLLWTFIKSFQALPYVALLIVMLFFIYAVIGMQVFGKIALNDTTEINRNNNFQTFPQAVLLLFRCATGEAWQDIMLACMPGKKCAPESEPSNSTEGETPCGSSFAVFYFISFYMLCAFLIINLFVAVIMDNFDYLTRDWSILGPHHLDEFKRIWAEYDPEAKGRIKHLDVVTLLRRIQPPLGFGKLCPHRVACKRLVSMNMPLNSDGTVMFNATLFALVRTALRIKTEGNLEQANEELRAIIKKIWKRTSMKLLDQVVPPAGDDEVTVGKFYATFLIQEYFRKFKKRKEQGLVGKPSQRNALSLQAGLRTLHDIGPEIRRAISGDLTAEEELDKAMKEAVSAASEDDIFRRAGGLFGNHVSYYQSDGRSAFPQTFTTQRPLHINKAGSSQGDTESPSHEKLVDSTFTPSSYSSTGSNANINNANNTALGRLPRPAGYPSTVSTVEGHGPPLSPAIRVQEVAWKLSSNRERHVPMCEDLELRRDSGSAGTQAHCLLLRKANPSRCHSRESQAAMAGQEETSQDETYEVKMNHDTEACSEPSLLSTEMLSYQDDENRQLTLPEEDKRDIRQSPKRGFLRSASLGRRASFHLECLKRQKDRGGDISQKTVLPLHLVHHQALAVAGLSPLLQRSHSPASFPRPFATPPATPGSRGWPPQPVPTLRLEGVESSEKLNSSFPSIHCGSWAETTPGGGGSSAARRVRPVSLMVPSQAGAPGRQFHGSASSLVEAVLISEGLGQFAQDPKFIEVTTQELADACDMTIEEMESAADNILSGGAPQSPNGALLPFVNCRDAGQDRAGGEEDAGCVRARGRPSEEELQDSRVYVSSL
# UniProt Q9NPD5, sequence (whole entry, looked up): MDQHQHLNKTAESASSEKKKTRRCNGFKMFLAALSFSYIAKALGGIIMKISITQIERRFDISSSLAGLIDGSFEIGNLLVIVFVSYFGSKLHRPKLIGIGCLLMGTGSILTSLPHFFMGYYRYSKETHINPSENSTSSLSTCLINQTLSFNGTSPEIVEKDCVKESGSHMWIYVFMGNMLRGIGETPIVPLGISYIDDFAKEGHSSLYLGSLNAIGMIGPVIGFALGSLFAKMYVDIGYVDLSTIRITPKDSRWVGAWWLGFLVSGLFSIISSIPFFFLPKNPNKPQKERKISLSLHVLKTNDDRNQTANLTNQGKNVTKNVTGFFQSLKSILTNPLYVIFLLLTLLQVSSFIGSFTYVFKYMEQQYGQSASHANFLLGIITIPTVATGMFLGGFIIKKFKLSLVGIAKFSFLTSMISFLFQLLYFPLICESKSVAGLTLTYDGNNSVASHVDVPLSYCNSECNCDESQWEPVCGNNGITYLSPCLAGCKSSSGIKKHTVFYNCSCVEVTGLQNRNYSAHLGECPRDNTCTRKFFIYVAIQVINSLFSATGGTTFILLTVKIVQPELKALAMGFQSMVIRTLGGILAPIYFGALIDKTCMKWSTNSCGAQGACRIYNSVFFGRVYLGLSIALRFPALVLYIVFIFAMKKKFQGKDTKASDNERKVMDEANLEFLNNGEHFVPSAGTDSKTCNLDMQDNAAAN
Compound,target or system,assay,system,setting,how to read,quantity,value
CC1(C)[C@H](C(=O)OCc2cccc(Oc3ccccc3)c2)[C@@H]1C=C(Cl)Cl,human CYP2B6,IVIVE from expressed enzymes,"human, liver, in vivo scaled","0.1 µM, age-specific",,enzyme contribution to CLint,2.99%
CCCC[C@@H]1NC(=O)[C@H](Cc2ccc(O)cc2)NC(=O)[C@@H]2CCCN2C(=O)[C@H](CC(=O)O)NC(=O)[C@H](C)NC(=O)[C@H](Cc2ccccc2)NC(=O)[C@@H]2CSCCC(=O)N3CN(CN(C3)C(=O)CCSC[C@@H](C(=O)N[C@@H](CNC(=O)CCOCCOCCOCCOCCOCCn3cc(CCC(=O)N[C@H]4CSCCC(=O)N5CN6CN(C5)C(=O)CCSC[C@H](NC(=O)[C@@H](CC(=O)O)NC(=O)[C@H](Cc5cccc7ccccc57)NC(=O)[C@@H]5CCCN5C4=O)C(=O)N[C@@H](CCSC)C(=O)N[C@@H](CCCCNC(=N)N)C(=O)N[C@@H](CC(=O)O)C(=O)N[C@@H](Cc4c[nH]c5ccccc45)C(=O)N[C@@H](CO)C(=O)N[C@@H]([C@@H](C)O)C(=O)N4CCC[C@H]4C(=O)N4C[C@H](O)C[C@H]4C(=O)N[C@@H](Cc4c[nH]c5ccccc45)C(=O)N[C@H](C(N)=O)CSCCC6=O)nn3)C(N)=O)NC1=O)C(=O)CCSC[C@H](NC(C)=O)C(=O)N[C@@H](CC(C)(C)C)C(=O)N1CCC[C@H]1C(=O)N[C@@H](CCC(=O)O)C(=O)N[C@H](C)C(=O)N1CCC[C@H]1C(=O)N[C@@H](Cc1ccc(O)cc1)C(=O)N2,Tumor necrosis factor receptor superfamily member 9/Nectin-4,"reporter gene, agonist, luciferase reporter",CD137 Jurkat reporter with HT-1376,"6 h, geometric mean",relative to: wells without compound,Emax,31 fold
CN1CCN(Cc2ccc(NC(=O)c3cncc(C#Cc4cnc(N)c5ncccc45)c3)cc2C(F)(F)F)CC1,"Voltage-dependent L-type calcium channel subunit alpha-1C (CACNA1C, Homo sapiens, UniProt Q13936)","L-type calcium current, inhibitor",,,,IC50,> 30 µM
CC1(C)C(C=C(Cl)Cl)C1C(=O)OC(C#N)c1ccc(F)c(Oc2ccccc2)c1 (centres unmarked),CES2 human cytosolic,,,"0.1 µM, age 6 months",,enzyme contribution,0.32%
CN(C)C(=O)COC(=O)Cc1ccc(OC(=O)c2ccc(NC(=N)N)cc2)cc1,"Broad substrate specificity ATP-binding cassette transporter ABCG2 (ABCG2, Homo sapiens, UniProt Q9UNQ0)","transport, inhibitor",,"100 µM, 5 (unit not given), pH 7, with: CCK-8",,inhibition,29.6%
COc1cccc(CNC(=O)C2CCN(Cc3cc4ccccc4n3Cc3ccccc3)CC2)c1OC,Vero-E6,CellTiter-Glo ATP,,"72 h, retest 8-point duplicates","relative to: DMSO 0%, hyamine -100%, more negative, more toxic",maximum response,-4.81%
CCOC(=O)C1=C[C@@H](OC(CC)CC)[C@H](NC(C)=O)[C@@H](N)C1,"Multidrug and toxin extrusion protein 2 (SLC47A2, Homo sapiens, UniProt Q86VL8)","transport, inhibitor",transiently transfected cells,"100 µM, 10 (unit not given), with: thiamine",,inhibition,24.5%
CCCC[C@@H]1NC(=O)[C@H](Cc2ccc(O)cc2)NC(=O)[C@H](C)N(C)C(=O)[C@H](CC(=O)O)NC(=O)[C@H](C)NC(=O)[C@H](Cc2ccccc2)NC(=O)[C@@H]2CSCCC(=O)N3CN(CN(C3)C(=O)CCSC[C@H](NC(C)=O)C(=O)N[C@@H](CC(C)(C)C)C(=O)N3CCC[C@H]3C(=O)N[C@@H](CCC(=O)O)C(=O)N[C@H](CCCCNC(=O)CCc3cn(CCOCCOCCOCCOCCOCCC(=O)N[C@H]4CSCCC(=O)N5CN6CN(C5)C(=O)CCSC[C@H](NC(=O)[C@@H](CC(=O)O)NC(=O)[C@H](Cc5cccc7ccccc57)NC(=O)[C@@H]5CCCN5C4=O)C(=O)N[C@@H](CCSC)C(=O)N[C@@H](CCCCNC(=N)N)C(=O)N[C@@H](CC(=O)O)C(=O)N[C@@H](Cc4c[nH]c5ccccc45)C(=O)N[C@@H](CO)C(=O)N[C@@H]([C@@H](C)O)C(=O)N4CCC[C@H]4C(=O)N4C[C@H](O)C[C@H]4C(=O)N[C@@H](Cc4c[nH]c5ccccc45)C(=O)N[C@H](C(N)=O)CSCCC6=O)nn3)C(=O)N3CCC[C@H]3C(=O)N[C@@H](Cc3ccc(O)cc3)C(=O)N2)C(=O)CCSC[C@@H](C(N)=O)NC1=O,Tumor necrosis factor receptor superfamily member 9/Nectin-4,"reporter gene, agonist, luciferase reporter",CD137 Jurkat reporter with HT-1376,"6 h, geometric mean",relative to: wells without compound,Emax,31 fold
CCCN(CCC)CCNC(=O)c1cc(Sc2ccc(Cl)cc2)nc2ccccc12,Vero-E6,CellTiter-Glo ATP,,"72 h, first round 5-point","relative to: DMSO 0%, hyamine -100%, more negative, more toxic",maximum response,-3.06%
CCCC[C@@H]1NC(=O)[C@H](Cc2ccc(O)cc2)NC(=O)[C@@H]2CCCN2C(=O)[C@H](CC(=O)O)NC(=O)[C@H](C)NC(=O)[C@H](Cc2ccccc2)NC(=O)[C@@H]2CSCCC(=O)N3CN(CN(C3)C(=O)CCSC[C@H](NC(C)=O)C(=O)N[C@@H](CC(C)(C)C)C(=O)N3CCC[C@H]3C(=O)N[C@@H](CCC(=O)O)C(=O)N[C@H](CCCCNC(=O)CCc3cn(CCOCCOCCOCCOCCOCCC(=O)N[C@H]4CSCCC(=O)N5CN6CN(C5)C(=O)CCSC[C@H](NC(=O)[C@@H](CC(=O)O)NC(=O)[C@H](Cc5cccc7ccccc57)NC(=O)[C@@H]5CCCN5C4=O)C(=O)N[C@@H](CCSC)C(=O)N[C@@H](CCCCNC(=N)N)C(=O)N[C@@H](CC(=O)O)C(=O)N[C@@H](Cc4c[nH]c5ccccc45)C(=O)N[C@@H](CO)C(=O)N[C@@H]([C@@H](C)O)C(=O)N4CCC[C@H]4C(=O)N4C[C@H](O)C[C@H]4C(=O)N[C@@H](Cc4c[nH]c5ccccc45)C(=O)N[C@H](C(N)=O)CSCCC6=O)nn3)C(=O)N3CCC[C@H]3C(=O)N[C@@H](Cc3ccc(O)cc3)C(=O)N2)C(=O)CCSC[C@@H](C(N)=O)NC1=O,Tumor necrosis factor receptor superfamily member 9/Nectin-4,"reporter gene, agonist, luciferase reporter",CD137 Jurkat reporter with HT-1376,"6 h, geometric mean",relative to: wells without compound,Emax,45 fold
COc1cc2c(c(OC)c1OC)-c1ccc(OC)c(=O)cc1[C@@H](NC(C)=O)CC2,"Solute carrier organic anion transporter family member 1B3 (SLCO1B3, Homo sapiens, UniProt Q9NPD5)","transport, inhibitor",transiently transfected cells,"100 µM, 10 (unit not given), with: CCK-8",,inhibition,66.2%

# For quick reference, copied from above:
Compound,target or system,assay,system,setting,how to read,quantity,value
CC1(C)[C@H](C(=O)OCc2cccc(Oc3ccccc3)c2)[C@@H]1C=C(Cl)Cl,human CYP2B6,IVIVE from expressed enzymes,"human, liver, in vivo scaled","0.1 µM, age-specific",,enzyme contribution to CLint,2.99%
